Measurements of several laboratories.
Each numbered part is a random draw from the data of one study; scales do not carry over between parts.
UniProt Q5XXA6, sequence (whole entry, unmodified, looked up): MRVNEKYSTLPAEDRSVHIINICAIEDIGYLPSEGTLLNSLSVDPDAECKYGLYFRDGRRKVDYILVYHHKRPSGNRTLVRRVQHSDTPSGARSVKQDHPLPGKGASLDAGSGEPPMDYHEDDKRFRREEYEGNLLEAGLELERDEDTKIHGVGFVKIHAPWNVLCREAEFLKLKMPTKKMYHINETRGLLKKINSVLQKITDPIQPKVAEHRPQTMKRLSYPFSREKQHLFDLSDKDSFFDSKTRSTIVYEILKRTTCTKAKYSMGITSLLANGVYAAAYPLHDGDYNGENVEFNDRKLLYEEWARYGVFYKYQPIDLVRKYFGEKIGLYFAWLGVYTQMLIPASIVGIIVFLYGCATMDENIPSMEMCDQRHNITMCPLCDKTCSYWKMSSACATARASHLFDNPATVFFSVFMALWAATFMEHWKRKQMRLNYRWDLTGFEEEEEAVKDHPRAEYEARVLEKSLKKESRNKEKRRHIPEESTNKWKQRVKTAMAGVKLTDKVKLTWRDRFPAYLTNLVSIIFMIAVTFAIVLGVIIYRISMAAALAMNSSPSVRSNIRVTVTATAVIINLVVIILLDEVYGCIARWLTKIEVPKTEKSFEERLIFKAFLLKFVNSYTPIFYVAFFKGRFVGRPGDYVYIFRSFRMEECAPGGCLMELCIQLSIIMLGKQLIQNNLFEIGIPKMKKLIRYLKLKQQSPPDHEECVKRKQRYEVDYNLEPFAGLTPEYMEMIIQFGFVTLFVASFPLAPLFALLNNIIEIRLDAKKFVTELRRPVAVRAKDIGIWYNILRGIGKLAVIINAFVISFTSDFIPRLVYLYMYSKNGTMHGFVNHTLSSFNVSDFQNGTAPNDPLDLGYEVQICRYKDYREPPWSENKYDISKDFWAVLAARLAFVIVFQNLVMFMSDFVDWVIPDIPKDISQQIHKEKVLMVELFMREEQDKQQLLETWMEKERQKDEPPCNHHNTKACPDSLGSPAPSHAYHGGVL
UniProt P10721, sequence (whole entry, unmodified, looked up): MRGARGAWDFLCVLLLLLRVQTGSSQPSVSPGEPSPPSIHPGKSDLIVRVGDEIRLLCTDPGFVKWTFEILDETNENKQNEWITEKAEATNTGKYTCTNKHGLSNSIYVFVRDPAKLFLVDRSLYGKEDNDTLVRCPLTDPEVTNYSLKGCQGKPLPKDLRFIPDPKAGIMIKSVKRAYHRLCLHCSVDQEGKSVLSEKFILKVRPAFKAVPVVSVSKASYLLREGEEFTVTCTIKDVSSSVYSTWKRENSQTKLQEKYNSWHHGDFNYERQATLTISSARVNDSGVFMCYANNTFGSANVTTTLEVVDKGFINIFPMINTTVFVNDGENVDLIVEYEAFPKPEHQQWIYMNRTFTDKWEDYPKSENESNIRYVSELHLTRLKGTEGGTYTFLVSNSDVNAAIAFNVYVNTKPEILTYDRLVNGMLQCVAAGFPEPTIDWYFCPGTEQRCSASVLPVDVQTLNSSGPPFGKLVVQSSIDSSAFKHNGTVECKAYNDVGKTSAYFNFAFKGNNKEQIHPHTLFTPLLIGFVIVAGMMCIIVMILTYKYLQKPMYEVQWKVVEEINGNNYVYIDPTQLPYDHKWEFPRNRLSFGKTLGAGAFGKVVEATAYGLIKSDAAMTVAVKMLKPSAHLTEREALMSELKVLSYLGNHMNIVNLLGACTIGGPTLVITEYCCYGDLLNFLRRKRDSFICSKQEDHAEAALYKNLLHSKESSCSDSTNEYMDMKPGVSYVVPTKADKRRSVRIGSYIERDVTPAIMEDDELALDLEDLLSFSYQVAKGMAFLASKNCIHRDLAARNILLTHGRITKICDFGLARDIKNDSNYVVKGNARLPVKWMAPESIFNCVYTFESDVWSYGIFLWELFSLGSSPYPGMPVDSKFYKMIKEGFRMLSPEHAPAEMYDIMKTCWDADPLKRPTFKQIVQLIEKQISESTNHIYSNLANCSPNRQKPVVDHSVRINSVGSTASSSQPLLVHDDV
UniProt O60331, sequence (whole entry, looked up): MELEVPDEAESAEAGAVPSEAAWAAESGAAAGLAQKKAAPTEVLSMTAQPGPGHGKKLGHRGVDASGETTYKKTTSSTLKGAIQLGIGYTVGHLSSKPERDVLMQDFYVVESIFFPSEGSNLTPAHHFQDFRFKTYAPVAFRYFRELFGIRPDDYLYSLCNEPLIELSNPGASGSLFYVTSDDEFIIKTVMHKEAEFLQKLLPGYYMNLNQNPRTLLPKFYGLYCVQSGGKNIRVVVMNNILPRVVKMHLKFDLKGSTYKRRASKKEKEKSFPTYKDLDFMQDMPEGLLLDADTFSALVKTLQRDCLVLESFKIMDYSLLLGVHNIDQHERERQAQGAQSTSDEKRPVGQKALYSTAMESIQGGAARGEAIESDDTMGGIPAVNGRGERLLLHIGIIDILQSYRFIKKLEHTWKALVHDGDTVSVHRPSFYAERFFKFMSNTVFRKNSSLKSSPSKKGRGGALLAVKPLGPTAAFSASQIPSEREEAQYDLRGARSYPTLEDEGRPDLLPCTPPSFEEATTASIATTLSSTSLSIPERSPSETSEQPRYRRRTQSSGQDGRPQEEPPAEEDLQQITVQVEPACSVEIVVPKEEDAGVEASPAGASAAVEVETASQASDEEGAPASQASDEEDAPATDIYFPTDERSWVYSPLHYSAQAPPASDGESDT
UniProt Q9UM73, sequence (whole entry, unmodified, looked up): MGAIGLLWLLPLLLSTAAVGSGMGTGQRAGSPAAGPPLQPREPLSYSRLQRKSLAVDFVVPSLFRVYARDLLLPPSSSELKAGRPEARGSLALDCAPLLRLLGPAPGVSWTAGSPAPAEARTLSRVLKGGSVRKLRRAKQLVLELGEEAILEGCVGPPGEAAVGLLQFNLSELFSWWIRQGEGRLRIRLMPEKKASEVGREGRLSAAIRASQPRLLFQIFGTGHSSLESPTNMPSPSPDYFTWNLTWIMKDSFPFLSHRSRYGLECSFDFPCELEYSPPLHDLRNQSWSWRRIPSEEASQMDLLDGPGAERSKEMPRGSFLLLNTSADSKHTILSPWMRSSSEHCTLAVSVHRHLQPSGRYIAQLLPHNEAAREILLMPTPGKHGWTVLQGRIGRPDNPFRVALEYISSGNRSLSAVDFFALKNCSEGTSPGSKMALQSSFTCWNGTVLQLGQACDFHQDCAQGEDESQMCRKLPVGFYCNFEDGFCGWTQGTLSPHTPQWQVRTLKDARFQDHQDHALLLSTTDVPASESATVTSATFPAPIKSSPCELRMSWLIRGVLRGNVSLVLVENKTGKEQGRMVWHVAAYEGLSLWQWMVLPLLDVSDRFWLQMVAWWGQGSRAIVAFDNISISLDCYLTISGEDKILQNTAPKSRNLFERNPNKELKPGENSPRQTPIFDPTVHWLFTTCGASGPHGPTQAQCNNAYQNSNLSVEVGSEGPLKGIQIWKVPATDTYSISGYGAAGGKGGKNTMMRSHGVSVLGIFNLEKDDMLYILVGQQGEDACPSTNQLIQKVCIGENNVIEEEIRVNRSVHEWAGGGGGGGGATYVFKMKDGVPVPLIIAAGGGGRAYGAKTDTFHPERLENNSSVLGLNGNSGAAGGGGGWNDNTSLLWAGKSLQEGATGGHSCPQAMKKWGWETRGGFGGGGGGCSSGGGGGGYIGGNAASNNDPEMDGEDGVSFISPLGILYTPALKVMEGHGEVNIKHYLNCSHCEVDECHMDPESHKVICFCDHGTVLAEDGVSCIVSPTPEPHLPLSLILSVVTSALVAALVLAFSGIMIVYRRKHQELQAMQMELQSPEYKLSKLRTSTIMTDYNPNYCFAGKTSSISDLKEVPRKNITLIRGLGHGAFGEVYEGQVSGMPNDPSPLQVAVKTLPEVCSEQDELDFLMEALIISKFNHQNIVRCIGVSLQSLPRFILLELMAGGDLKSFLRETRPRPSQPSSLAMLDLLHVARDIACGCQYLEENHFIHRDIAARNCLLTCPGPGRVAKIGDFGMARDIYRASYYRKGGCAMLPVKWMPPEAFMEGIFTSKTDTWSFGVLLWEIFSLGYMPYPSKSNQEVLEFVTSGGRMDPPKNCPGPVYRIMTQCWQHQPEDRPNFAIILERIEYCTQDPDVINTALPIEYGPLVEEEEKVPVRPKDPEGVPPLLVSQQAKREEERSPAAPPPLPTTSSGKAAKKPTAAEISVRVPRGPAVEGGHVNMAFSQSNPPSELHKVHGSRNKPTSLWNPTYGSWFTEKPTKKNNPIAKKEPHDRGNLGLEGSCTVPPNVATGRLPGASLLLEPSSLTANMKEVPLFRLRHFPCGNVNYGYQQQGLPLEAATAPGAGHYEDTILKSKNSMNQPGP
UniProt Q9BQI3, sequence (whole entry, looked up): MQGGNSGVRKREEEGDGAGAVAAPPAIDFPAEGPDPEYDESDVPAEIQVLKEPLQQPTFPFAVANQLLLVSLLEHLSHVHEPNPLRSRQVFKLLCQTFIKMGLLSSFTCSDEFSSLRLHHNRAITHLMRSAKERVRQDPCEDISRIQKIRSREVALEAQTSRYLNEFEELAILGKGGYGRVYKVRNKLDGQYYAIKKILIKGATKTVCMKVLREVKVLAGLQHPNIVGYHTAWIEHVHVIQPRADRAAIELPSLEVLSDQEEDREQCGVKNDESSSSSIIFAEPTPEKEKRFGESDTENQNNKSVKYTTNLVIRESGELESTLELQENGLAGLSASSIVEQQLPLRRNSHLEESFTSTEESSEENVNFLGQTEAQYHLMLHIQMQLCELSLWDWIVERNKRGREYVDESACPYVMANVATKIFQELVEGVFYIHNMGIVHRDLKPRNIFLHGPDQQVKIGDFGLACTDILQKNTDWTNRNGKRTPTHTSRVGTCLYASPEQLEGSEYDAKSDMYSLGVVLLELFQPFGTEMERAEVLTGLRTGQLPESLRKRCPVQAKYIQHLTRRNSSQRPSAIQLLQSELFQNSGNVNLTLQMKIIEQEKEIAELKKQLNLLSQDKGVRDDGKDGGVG

Sample 1
Target: panel of 300 human kinases
Concentration: 0.5 µM
Reading: higher = more selective
With `CCC(=O)Nc1ccc2ncnc(Nc3cccc(Br)c3)c2c1` the Gini score was 0.6.
For `CCCCc1c(-c2ccc(OC)cc2)[nH]c2nccnc12`, the Gini score was 0.61.
The Gini score of `COc1ccc(-c2cnc3c(-c4ccsc4)cnn3c2)cc1` is reported as 0.56.
The Gini score of `c1ccc(-c2n[nH]c3c2oc2ccccc23)cc1` is reported as 0.64.
The Gini score of `CCCNC(=O)Nc1ccc(Oc2ncnc3cc(OC)c(OC)cc23)cc1Cl` is reported as 0.63.
`O=C1Cc2c([nH]c3ccc(Br)cc23)-c2ccccc2N1` gave a Gini score of 0.7.

Sample 2
Cell line: mouse MPNST tumor cells
Method: high-content immunofluorescence imaging
Item: nuclear SOX9
Concentration: 10 µM
Time: 12 h
Notes: mean of 2 replicates
Reference: DMSO control
Reading: higher = more nuclear SOX9
`Cc1cc(C)c2nc(-c3ccccn3)cc(C(=O)Nc3ccc(S(=O)(=O)Nc4onc(C)c4C)cc3)c2c1`: “nuclear SOX9 intensity” 101 % of DMSO.
For `O=C1Cc2cc(CCN3CCN(c4nsc5ccccc45)CC3)c(Cl)cc2N1`, “nuclear SOX9 intensity” read 95.7 % of DMSO.
For `CN(C)[C@@H]1C(=O)C(C(N)=O)=C(O)[C@@]2(O)C(=O)C3=C(O)c4c(O)ccc(Cl)c4[C@@H](O)[C@H]3C[C@@H]12`, “nuclear SOX9 intensity” read 107 % of DMSO.
Under “nuclear SOX9 intensity”, `CCOc1ccc2c(c1)C(C)=CC(C)(C)N2` is recorded as 105 % of DMSO.
Under “nuclear SOX9 intensity”, `O=[N+]([O-])c1cc(Cl)ccc1S(=O)(=O)N1CCN(Cc2ccccc2)CC1` is recorded as 91.3 % of DMSO.
Under “nuclear SOX9 intensity”, `CC(C(=O)O)c1ccc(C(=O)c2cccs2)cc1` (stereo not drawn) is recorded as 99.1 % of DMSO.

Sample 3
SMILES: C=CCc1ccc(O)c(-c2ccc(O)c(CC=C)c2)c1
Effect on: chloride current
Method: whole-cell voltage clamp
It gave 2.82 µM for IC50 (Anoctamin-1 (ANO1, Homo sapiens, UniProt Q5XXA6, del476-501); membrane voltage -60 mV, added: 300 nM Ca2+).
It gave 3.99 µM for IC50 (Anoctamin-1 (ANO1, Homo sapiens, UniProt Q5XXA6, del476-501/E650A); membrane voltage 80 mV).
The IC50 was 6.49 µM (Anoctamin-1 (ANO1, Homo sapiens, UniProt Q5XXA6, del476-501/R561A); membrane voltage 100 mV).
Anoctamin-1 (ANO1, Homo sapiens, UniProt Q5XXA6, del476-501/F628I); inhibitor; F602I mutant at -20 mV — IC50: 10.5 µM.
Anoctamin-1 (ANO1, Homo sapiens, UniProt Q5XXA6, del476-501/R631I); inhibitor; R605I mutant at 80 mV — IC50: 28.9 µM.
The IC50 was 9.95 µM (Anoctamin-1 (ANO1, Homo sapiens, UniProt Q5XXA6, del476-501/F807Y); inhibitor; 40 mV holding voltage).

Sample 4
Compound: CN(C)CC#Cc1ccc(OCCCc2sc(N3CCc4cccc(C(=O)Nc5nc6ccccc6s5)c4C3)nc2C(=O)O)c(F)c1
Effect on: cell-free assay
Method: competition with immobilised ligand
Concentration: 1 µM
For KIT (Homo sapiens, UniProt P10721, V559D): remaining binding read 96%.
For EIF2AK1 (Homo sapiens, UniProt Q9BQI3): remaining binding read 98%.
It gave 85% for remaining binding (Mast/stem cell growth factor receptor Kit, autoinhibited (KIT, Homo sapiens, UniProt P10721)).
PIK3CA (Homo sapiens, UniProt P42336, I800L) — remaining binding: 75%.
The remaining binding was 100% (PIP5K1C (Homo sapiens, UniProt O60331)).
The remaining binding was 90% (WNK1 (Homo sapiens, UniProt Q9H4A3)).
The remaining binding was 84% (TRPM6 (Homo sapiens, UniProt Q9BX84)).
It gave 100% for remaining binding (NTRK3 (Homo sapiens, UniProt Q16288)).
ALK (Homo sapiens, UniProt Q9UM73, L1196M) — remaining binding: 100%.
It gave 92% for remaining binding (Insulin receptor (INSR, Homo sapiens, UniProt P06213)).
For MAP3K12 (Homo sapiens, UniProt Q12852): remaining binding read 100%.
The remaining binding was 98% (CDKL2 (Homo sapiens, UniProt Q92772)).
The remaining binding was 77% (PLK4 (Homo sapiens, UniProt O00444)).
It gave 99% for remaining binding (Tyrosine-protein kinase ABL1, phosphorylated (ABL1, Homo sapiens, UniProt P00519, H396P)).
It gave 84% for remaining binding (MUSK (Homo sapiens, UniProt O15146)).
The remaining binding was 100% (CDK18 (Homo sapiens, UniProt Q07002)).
For CAMK1G (Homo sapiens, UniProt Q96NX5): remaining binding read 94%.
It gave 91% for remaining binding (RIOK1 (Homo sapiens, UniProt Q9BRS2)).
